Measured values gathered from unrelated publications.
Each numbered part is a random draw from the data of one study; scales do not carry over between parts.

Block 1 — method: protein binding microarray; molecule type: double-stranded DNA, one strand shown; medium: in vitro; tested at: not given; reference: not given; direction: higher = stronger binding
Target: Histone acetyltransferase KAT6A, winged helix 1, GST fusion (KAT6A, Homo sapiens, UniProt Q92794, residues 1-85)
Setting: 8-mer, flanks averaged, mean of 2 arrays, mostly near background
Residues (chain): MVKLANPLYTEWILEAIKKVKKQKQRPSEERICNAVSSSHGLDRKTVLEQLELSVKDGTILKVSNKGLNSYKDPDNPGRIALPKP
| Sequence | E-score |
| --- | --- |
| ATCCGGTG | 0.137 |
| GGACCCCA | -0.159 |
| TGCAATAA | -0.0818 |
| CGTGCATC | -0.0704 |
| ACTCTCTA | -0.221 |
| ATTGGTAA | 0.0153 |
| GCCAGGCC | -0.00114 |
| AAGGATCG | -0.0348 |
| CGATTTTC | 0.00957 |
| CGAGTGGA | -0.15 |
| CGCGGCAA | 0.432 |
| GGCACCAC | 0.131 |
| CTGACAGA | -0.0792 |

Block 2 — method: universal PBM; molecule type: double-stranded DNA, one strand shown; medium: in vitro; tested at: 600 nM; direction: higher = stronger binding
Target: Sal-like protein 4, full length isoform A (SALL4, Homo sapiens, UniProt Q9UJQ4, residues 1-1053)
UniProt Q9UJQ4, sequence (whole entry, looked up): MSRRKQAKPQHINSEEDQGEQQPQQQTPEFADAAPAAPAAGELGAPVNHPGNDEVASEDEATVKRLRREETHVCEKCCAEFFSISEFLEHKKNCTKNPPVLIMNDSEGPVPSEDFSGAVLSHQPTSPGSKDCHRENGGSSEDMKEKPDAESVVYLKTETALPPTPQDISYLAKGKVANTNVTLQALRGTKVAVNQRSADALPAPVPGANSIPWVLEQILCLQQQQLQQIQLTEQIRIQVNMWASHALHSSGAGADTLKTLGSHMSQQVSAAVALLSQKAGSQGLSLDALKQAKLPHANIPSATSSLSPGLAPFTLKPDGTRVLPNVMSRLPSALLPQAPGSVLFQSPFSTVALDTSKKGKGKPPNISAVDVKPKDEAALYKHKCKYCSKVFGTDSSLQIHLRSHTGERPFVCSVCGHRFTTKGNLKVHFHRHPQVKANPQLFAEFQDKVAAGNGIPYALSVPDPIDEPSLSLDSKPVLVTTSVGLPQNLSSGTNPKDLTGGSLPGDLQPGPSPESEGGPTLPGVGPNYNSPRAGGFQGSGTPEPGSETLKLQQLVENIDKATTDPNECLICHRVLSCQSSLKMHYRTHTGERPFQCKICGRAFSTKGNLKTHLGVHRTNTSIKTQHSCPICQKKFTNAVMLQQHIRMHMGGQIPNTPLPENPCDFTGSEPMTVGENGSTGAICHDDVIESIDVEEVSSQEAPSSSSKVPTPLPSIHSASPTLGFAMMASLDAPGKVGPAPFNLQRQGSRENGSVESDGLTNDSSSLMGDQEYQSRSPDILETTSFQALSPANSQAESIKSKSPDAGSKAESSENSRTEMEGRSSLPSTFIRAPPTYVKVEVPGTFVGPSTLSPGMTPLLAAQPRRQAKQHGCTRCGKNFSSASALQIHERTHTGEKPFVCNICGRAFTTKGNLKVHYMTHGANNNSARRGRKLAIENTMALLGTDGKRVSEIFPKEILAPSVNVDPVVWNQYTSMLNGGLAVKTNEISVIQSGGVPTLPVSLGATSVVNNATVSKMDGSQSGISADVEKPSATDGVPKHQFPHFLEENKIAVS
Setting: 8-mer, flanks averaged, mean of replicates
| Sequence | E-score |
| --- | --- |
| AACCAGTA | 0.0529 |
| ACCCGACC | -0.237 |
| ATGAGCTG | -0.0157 |
| CAATGAAA | 0.215 |
| AATCAATC | 0.174 |
| AGGTGAAC | -0.12 |
| ATAGCTTG | 0.129 |
| AATCCGAG | 0.0423 |
| CCGCCGAA | -0.253 |
| AGGCCACC | -0.288 |
| ACATAGCT | 0.0661 |

Block 3 — method: RNA Bind-n-Seq; molecule type: RNA; medium: in vitro; tested at: 100 nM; reference: input RNA pool; direction: higher = stronger binding
Target: RING finger protein unkempt homolog, zinc fingers 1-6, SBP tag (UNK, Homo sapiens, UniProt Q9C0B0, residues 30-357)
UniProt Q9C0B0, sequence (30-357, looked up): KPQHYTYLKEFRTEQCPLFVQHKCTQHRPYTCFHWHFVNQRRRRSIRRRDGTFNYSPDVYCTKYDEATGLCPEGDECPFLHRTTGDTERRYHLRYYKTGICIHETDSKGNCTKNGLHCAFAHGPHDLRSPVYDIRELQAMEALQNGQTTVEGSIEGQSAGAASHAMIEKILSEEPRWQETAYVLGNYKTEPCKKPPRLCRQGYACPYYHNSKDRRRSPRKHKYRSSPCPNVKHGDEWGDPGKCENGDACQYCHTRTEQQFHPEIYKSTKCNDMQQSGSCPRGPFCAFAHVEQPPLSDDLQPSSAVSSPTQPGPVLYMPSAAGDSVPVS
Setting: RNA with constant flanks, vertebrate orthologous sites, ends assumed
| Sequence | bound/input enrichment [ratio] |
| --- | --- |
| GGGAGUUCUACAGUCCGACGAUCCUUGCUGCUUCUGACACGAUUUACCAUAUGCACAAUCGUAAUUCCUUUUCCGCACAAUCCUUACUAAUGCCCGACCUUCCUCUACCUUCAGUGUUAUUUAUCAAUGUCUGCUUCUUCAUACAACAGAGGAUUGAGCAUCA | 1.34 |
| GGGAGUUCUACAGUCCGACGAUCUGUCCUUUCUUACUGUCCCCAGCCAGGGCCGGGGACCGGUGUUUCACUGAGGACCUGCAUUAGAAACAUUUUUUAAAUUGUUGUACAGGAAGAGAUGUGUCUAAAACAGCAUCUUAAAGCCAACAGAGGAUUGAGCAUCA | 0.966 |
| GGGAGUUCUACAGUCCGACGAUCUGUCCUUUCUUACUGUCCCCAGCCGGGGCUGGGGACCGGUGUGUCACUGAGGACCUGCAUUAGAAACAUUUUUUAAAUUGUUGUACAGGAAGAGAUGUGUCUAAAACAGCAUCUCAAAGCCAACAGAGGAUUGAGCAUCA | 1.23 |
| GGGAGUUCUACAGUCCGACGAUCCCCUUUCUCCCCAGCUGAGGGAGUUCAGGGAGCCCAGGAAGACCCUCAACUGUUCCAAUCCAGUAUUUUUUUCUUUUUUAAAAUUACUGUAUUUAUUAUGACGAUGGUGACUCCCCAGUGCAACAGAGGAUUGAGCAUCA | 0.433 |
| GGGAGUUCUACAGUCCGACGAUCAGGACUUCUAAUAGGCAAAUUCAGGGAGAGAGAGGCUUCAGGGAAUAUGAAUUUAUAUAGUAGUGAUUAUGAAGUAUAACCUUGAUAUAAUGGAAUGAUUUGGGGGAGUGAUGACAACUUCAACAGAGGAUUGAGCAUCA | 4.78 |
| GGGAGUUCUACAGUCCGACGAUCAGAACCUAAACUUAUAGCAAAAGAGCCAAGCAGUAGUUUUUUUGUAAAUGGAAAAAUAAUUAGAUCCAGACUUUGUUUCCUUCAAUUUUAAAAAUAAAAAAUACCUCAGUGCUAUGUUUUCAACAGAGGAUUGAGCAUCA | 0.686 |
| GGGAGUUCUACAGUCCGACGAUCCUCCCUCCCAGGACUGAGCAGUGGGGCCUGGGCCCACUGGCCACAUCAGCCAGGCCAUUUUAGCUCUUUUCUUUUUUUUAAACAGUGCCCUUGUUAUCCUGUAUAUAAGUGGAGAUUUGGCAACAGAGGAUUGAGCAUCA | 1.42 |
| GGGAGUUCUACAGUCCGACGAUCUUCAUUACCUGAGCCGAGUGGAGGUGACGGAGUUUGAAGACAUCAAGUCAGGCUACAGAAUAGAUUUUUGUUUAAUGGUUUCACGUAACACUUUAGUGACUAUUUUUAUUUUUUAAAAUUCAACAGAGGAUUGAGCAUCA | 1.24 |

Further values, each from its own experiment
| Molecule | target | assay | system | setting | scale | measurement | result |
| --- | --- | --- | --- | --- | --- | --- | --- |
| PhoQ, residues 284 288 289 292 302 303 TAVSDG | PhoP, residues 12 14 15 18 19 SYFRT (Escherichia coli, UniProt P23836) | Sort-seq, measured: YFP reporter | E. coli | PhoQ-PhoP variant library, together with: 10 µM Mg2+ | reference: high Mg2+ state, higher = stronger signaling | fold induction | 0.87 |

Excerpt of the above (block 1):
| Sequence | E-score |
| --- | --- |
| CGATTTTC | 0.00957 |
| AAGGATCG | -0.0348 |
| CTGACAGA | -0.0792 |
| ACTCTCTA | -0.221 |
| TGCAATAA | -0.0818 |
